Results gathered from unrelated publications.
HDAC6: Protein deacetylase HDAC6 (HDAC6, Homo sapiens, UniProt Q9UBN7)
Chain of UniProt Q9UBN7 (whole entry, looked up): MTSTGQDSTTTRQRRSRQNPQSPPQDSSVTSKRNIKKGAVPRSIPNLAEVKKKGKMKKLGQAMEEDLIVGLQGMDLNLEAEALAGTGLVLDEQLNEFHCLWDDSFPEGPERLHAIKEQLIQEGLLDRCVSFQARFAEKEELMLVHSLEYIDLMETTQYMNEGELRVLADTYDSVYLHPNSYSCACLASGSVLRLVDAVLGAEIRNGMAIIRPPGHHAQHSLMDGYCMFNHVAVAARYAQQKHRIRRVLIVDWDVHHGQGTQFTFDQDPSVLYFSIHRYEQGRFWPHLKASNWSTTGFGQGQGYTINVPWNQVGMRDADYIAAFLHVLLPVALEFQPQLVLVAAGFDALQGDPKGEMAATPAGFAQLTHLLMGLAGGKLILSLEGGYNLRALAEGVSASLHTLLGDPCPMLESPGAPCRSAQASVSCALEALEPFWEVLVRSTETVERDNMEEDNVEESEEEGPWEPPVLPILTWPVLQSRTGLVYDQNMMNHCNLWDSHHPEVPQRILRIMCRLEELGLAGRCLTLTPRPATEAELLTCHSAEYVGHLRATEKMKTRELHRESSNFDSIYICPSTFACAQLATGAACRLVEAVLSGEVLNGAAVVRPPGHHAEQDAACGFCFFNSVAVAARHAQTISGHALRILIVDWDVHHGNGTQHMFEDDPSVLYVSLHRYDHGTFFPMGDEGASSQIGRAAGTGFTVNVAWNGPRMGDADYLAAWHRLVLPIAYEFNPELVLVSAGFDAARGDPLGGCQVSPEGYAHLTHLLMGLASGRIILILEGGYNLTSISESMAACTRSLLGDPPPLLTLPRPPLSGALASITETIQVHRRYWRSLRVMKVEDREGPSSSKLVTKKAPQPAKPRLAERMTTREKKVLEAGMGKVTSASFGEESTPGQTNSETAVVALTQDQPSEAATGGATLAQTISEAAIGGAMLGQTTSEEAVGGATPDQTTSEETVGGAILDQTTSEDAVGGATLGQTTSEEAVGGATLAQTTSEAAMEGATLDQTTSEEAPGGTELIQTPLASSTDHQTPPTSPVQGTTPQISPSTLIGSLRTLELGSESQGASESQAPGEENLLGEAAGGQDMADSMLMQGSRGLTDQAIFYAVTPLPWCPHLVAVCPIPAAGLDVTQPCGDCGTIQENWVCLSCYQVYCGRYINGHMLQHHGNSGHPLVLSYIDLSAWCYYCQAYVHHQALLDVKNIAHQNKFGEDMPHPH
PTGS2: Prostaglandin G/H synthase 2 (PTGS2, Homo sapiens, UniProt P35354)
Chain of UniProt P35354 (whole entry, looked up): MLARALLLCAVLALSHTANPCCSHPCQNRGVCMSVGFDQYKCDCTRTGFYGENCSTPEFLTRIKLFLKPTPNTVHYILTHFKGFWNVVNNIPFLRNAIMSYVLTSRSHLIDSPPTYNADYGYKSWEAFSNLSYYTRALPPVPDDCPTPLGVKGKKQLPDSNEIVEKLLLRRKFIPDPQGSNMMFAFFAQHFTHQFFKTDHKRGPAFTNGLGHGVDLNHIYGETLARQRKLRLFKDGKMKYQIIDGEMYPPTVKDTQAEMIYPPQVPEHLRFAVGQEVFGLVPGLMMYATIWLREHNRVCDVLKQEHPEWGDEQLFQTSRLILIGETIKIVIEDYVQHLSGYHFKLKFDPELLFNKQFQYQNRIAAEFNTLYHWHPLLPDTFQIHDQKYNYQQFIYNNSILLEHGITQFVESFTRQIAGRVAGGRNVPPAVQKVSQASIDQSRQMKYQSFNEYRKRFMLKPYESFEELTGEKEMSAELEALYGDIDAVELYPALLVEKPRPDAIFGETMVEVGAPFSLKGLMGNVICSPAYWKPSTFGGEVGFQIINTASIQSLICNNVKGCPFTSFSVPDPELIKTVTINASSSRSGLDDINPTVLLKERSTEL
USP51: Ubiquitin carboxyl-terminal hydrolase 51 (USP51, Homo sapiens, UniProt Q70EK9)
Chain of UniProt Q70EK9 (whole entry, looked up): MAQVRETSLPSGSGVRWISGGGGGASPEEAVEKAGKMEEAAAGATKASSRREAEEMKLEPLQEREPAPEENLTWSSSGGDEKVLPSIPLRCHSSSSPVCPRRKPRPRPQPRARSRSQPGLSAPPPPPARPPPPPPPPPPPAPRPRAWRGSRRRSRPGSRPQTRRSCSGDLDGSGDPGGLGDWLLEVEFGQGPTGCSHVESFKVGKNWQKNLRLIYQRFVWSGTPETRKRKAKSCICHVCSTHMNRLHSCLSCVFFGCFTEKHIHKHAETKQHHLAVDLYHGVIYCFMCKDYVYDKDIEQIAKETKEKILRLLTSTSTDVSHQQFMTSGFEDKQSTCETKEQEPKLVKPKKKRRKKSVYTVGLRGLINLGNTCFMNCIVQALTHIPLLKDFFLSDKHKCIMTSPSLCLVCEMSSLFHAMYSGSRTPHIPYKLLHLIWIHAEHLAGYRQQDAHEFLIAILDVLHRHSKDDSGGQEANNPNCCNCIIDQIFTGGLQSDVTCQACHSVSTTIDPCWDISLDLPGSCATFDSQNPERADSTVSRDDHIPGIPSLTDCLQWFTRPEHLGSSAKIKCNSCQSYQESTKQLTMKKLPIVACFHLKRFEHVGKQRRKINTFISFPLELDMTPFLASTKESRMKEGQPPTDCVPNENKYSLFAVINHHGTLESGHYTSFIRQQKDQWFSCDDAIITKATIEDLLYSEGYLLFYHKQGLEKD
SLC6A4: Sodium-dependent serotonin transporter (SLC6A4, Homo sapiens, UniProt P31645)
Chain of UniProt P31645 (whole entry, looked up): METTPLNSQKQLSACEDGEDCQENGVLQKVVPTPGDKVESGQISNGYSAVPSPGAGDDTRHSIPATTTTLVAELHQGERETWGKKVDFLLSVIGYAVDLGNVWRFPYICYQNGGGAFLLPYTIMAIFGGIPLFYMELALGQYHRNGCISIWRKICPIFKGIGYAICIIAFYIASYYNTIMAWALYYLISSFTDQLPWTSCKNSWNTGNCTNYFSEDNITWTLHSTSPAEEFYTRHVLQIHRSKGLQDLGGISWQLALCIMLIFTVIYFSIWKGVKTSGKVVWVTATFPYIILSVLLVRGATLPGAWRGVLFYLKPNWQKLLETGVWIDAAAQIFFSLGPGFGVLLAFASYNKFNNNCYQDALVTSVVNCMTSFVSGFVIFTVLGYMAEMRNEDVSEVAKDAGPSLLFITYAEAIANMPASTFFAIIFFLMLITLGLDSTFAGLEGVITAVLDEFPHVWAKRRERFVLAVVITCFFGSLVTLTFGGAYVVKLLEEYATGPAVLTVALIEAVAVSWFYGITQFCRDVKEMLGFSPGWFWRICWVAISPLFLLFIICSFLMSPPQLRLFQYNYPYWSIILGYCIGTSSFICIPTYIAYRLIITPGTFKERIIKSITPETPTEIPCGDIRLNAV
PDE10A: cAMP and cAMP-inhibited cGMP 3',5'-cyclic phosphodiesterase 10A (PDE10A, Homo sapiens, UniProt Q9Y233)
Chain of UniProt Q9Y233 (whole entry, looked up): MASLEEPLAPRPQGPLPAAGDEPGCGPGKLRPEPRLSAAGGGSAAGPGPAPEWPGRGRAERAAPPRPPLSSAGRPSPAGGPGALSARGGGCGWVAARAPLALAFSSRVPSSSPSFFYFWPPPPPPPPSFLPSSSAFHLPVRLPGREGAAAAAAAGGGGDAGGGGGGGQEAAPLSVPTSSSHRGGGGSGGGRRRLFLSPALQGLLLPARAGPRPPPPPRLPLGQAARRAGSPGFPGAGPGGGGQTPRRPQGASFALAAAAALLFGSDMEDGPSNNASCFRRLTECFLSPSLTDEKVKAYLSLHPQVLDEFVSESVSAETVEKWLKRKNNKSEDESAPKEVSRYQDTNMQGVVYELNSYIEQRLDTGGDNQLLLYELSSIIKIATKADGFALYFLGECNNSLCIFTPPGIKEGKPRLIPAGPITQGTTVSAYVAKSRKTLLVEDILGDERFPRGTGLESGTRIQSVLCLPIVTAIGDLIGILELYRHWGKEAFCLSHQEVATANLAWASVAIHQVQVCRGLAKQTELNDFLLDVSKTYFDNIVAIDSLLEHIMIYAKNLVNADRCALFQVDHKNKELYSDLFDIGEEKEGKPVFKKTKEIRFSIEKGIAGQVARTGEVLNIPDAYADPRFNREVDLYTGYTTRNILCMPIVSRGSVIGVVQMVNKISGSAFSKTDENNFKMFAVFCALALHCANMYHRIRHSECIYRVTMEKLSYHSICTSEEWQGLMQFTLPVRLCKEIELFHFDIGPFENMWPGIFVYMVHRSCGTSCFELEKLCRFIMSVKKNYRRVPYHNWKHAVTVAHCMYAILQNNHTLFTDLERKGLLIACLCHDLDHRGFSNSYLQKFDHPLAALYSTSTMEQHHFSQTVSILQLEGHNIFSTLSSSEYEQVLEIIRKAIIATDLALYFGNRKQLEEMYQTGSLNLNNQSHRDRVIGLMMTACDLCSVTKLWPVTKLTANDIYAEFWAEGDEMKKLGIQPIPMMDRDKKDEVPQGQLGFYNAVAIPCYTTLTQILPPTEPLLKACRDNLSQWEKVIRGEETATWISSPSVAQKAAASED
MPO: Myeloperoxidase (MPO, Homo sapiens, UniProt P05164)
SCN1A: Sodium channel protein type 1 subunit alpha (SCN1A, Homo sapiens, UniProt P35498)
HDAC1: Histone deacetylase 1 (HDAC1, Homo sapiens, UniProt Q13547)
Chain of UniProt Q13547 (whole entry, looked up): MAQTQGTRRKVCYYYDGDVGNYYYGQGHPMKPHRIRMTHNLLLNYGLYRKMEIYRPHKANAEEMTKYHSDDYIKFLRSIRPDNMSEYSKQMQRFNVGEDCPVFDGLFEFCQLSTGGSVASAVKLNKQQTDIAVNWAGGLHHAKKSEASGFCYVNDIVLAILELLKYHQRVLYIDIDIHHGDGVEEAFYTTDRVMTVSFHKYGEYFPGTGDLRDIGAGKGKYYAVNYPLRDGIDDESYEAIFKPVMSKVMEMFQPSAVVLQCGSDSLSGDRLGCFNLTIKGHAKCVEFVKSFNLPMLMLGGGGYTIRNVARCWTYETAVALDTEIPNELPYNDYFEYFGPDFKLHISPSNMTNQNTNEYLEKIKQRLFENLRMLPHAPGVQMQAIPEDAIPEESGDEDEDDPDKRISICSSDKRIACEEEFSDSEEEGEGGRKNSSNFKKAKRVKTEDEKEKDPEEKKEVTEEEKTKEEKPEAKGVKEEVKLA
SIRT6: NAD-dependent protein deacylase sirtuin-6 (SIRT6, Homo sapiens, UniProt Q8N6T7)
Chain of UniProt Q8N6T7 (whole entry, looked up): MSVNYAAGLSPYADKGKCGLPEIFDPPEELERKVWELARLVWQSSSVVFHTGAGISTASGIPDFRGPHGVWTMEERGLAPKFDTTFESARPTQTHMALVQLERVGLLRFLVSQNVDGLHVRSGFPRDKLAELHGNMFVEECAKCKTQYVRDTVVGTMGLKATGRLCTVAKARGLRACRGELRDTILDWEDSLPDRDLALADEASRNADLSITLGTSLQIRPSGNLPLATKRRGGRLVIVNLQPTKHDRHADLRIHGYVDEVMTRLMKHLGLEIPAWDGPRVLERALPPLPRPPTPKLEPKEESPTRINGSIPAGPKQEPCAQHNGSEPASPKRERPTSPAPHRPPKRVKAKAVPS

For `CCCCCCC#Cc1cncc(-c2nnc(SCc3cc([N+](=O)[O-])cc([N+](=O)[O-])c3)n2CCCN)c1`, the inhibition was 100% (mraY (Staphylococcus aureus, UniProt Q2FZ93); cell-free assay, inhibitor; 250 µM).
With `Cc1cc(C(C)(C)C)ccc1OS(=O)(=O)Oc1cccc(C(=O)NO)c1C` the inhibition was 5% (HDAC6; enzyme activity, inhibitor, fluorescence; 10 µM).
The inhibition of `CCc1nn(C)c2nc(-c3ccc(C(=O)O)cc3)nc(NCc3ccc(F)cc3)c12` is reported as 30% (High affinity cAMP-specific and IBMX-insensitive 3',5'-cyclic phosphodiesterase 8A (PDE8A, Homo sapiens, UniProt O60658); enzyme activity, inhibitor, radiometric; 10 µM).
`CNc1ncc2c(/C=C/C(=O)N3CCC(OC)CC3)nn(Cc3cccc(C(F)(F)F)c3)c2n1` has a remaining activity of 100% (Tyrosine-protein kinase SYK (SYK, Homo sapiens, UniProt P43405); enzyme activity, inhibitor, radiometric; 1 µM).
`C#Cc1cc(-c2cc(Nc3nc(N[C@@H](C)c4ccc(F)cn4)ncc3Cl)n[nH]2)ccc1C=O` gave an inhibition of 1.24% (RAC-alpha serine/threonine-protein kinase (AKT1, Homo sapiens, UniProt P31749); enzyme activity, inhibitor; 0.2 µM).
With `O=C(O)c1ccc(O)cc1` the inhibition was 3.08% (PTGS2; enzyme activity, inhibitor; 0.12 µg/mL).
For `COc1cc(-c2cncc3c2CN(C)Cc2cc(N4CCNCC4)ccc2-3)cc(OC)c1OC`, the remaining activity was 93% (Insulin-like growth factor 1 receptor (IGF1R, Homo sapiens, UniProt P08069); enzyme activity, inhibitor; 1 µM).
With `O=C(NO)c1cc(F)cc(OS(=O)(=O)Oc2ccccc2)c1` the inhibition was 27% (Histone deacetylase 5 (HDAC5, Homo sapiens, UniProt Q9UQL6); enzyme activity, inhibitor, fluorescence; 10 µM).
`O=c1c(-c2ccc(O)cc2)coc2cc(O)cc(O)c12` gave an inhibition of 43% (USP51; enzyme activity, inhibitor; 5 µM).
`N#CC[C@@]12C[C@@H]1[C@@H](n1cnc3c(Nc4ccccc4)nc(C#Cc4ccc(Cl)s4)nc31)[C@H](O)[C@@H]2O` gave an inhibition of 17% (SLC6A4; ligand displacement, radioligand; 10 µM).
The inhibition of `COc1ccc(C(=O)c2nccc3cc(OC)c(OC)cc23)cc1` is reported as 32% (PDE10A; enzyme activity, inhibitor, FP; 0.1 µM).
For `CC(C)OCCn1c(=S)[nH]c(=O)c2[nH]ccc21`, the inhibition was 99.9% (MPO; enzyme activity, inhibitor, fluorescence; 30 µM).
With `COC(=O)c1ccc(O)cc1` the inhibition was 82.1% (PTGS2; enzyme activity, inhibitor; 31.25 µg/mL).
With `CNCCCC12CCC(c3ccccc31)c1ccccc12` the inhibition was 28.8% (SCN1A; ion current, inhibitor, patch clamp; 10 µM).
`O=c1c(-c2ccc(O)cc2)coc2c([C@@H]3O[C@H](CO)[C@@H](O)[C@H](O)[C@H]3O)c(O)ccc12` has an inhibition of 0% (USP51; enzyme activity, inhibitor; 5 µM).
For `Nc1nc2[nH]c(C3CC3)c(Cc3ccc(Cl)c(Cl)c3)c(=O)n2n1`, the inhibition was 93% (C-C chemokine receptor type 5 (CCR5, Homo sapiens, UniProt P51681); β-arrestin recruitment, antagonist; 1 µM).
`COc1ccc(NC(=S)NN=Cc2ccc(N3CCCCC3)cc2)cc1` has an inhibition of 75.9% (Dihydrofolate reductase (DHFR, Homo sapiens, UniProt P00374); enzyme activity, inhibitor; 500 µM).
The inhibition of `Cc1cc(O)c(-c2ccc([C@@H](C)CN(C)C)cc2)c2c1[nH]c(=O)c1sccc12` is reported as 11% (Cyclin-dependent kinase 10 (CDK10, Homo sapiens, UniProt Q15131); enzyme activity, inhibitor; 0.1 µM).
`O=c1cc(-c2ccc(O)c(O)c2)oc2cc(O)cc(O)c12` gave an inhibition of 36.2% (PTGS2; enzyme activity, inhibitor; 0.24 µg/mL).
The inhibition of `CC[C@H](C)C(=O)O[C@H]1C[C@@H](C)C=C2C=C[C@H](C)[C@H](CC[C@@H]3C[C@@H](O)CC(=O)O3)[C@H]21` is reported as 93% (USP51; enzyme activity, inhibitor; 5 µM).
`NC/C(=C\F)COc1cccc(Cn2c(=S)[nH]c(=O)c3[nH]cnc32)c1` gave an inhibition of 99.7% (MPO; enzyme activity, inhibitor, fluorescence; 15 µM).
With `C[C@]12C[C@H](O)[C@H]3[C@@H](CCC4=CC(=O)CC[C@@]43C)[C@@H]1CC[C@@H]2C(=O)CO` the inhibition was 26% (USP51; enzyme activity, inhibitor; 5 µM).
`Cc1cc(OS(=O)(=O)Oc2ccc(Br)cc2)cc(C(=O)NO)c1` has an inhibition of 18% (HDAC1; enzyme activity, inhibitor, fluorescence; 10 µM).
For `COc1cc2nccc(Cc3cccc(-c4ccccc4)c3)c2cc1OC`, the inhibition was 33% (PDE10A; enzyme activity, inhibitor, FP; 0.1 µM).
For `Cc1cc(OS(=O)(=O)Oc2ccccc2)cc(C(=O)NO)c1`, the inhibition was 10% (HDAC1; enzyme activity, inhibitor, fluorescence; 5 µM).
`COc1cc([C@H]2OC[C@H]3[C@@H]2CO[C@@H]3c2cc(OC)c(O)c(OC)c2)cc(OC)c1O` gave an inhibition of 13% (PTGS2; enzyme activity, inhibitor; 0.24 µg/mL).
The inhibition of `CC(C(=O)O)c1cccc(Oc2ccccc2)c1` (centres unmarked) is reported as 5% (Prostaglandin G/H synthase 1 (PTGS1, Ovis aries, UniProt P05979); enzyme activity, inhibitor, fluorescence; 100 µM).
With `COc1cc(-c2cc(=O)c3c(O)cc(O)cc3o2)ccc1O` the inhibition was 6.19% (PTGS2; enzyme activity, inhibitor; 0.98 µg/mL).
`CC(=O)O[C@H]1C(=O)[C@@]2(C)[C@H]([C@H](OC(=O)c3ccccc3)[C@]3(O)C[C@H](OC(=O)[C@H](O)[C@@H](NC(=O)c4ccccc4)c4ccccc4)C(C)=C1C3(C)C)[C@]1(OC(C)=O)CO[C@@H]1C[C@@H]2O` has an inhibition of 13% (USP51; enzyme activity, inhibitor; 5 µM).
For `C=CC(=O)N1CCC(COCC(=O)N2CCN(c3nc(-c4cnc(N)nc4C(F)F)nc(N4CCOC[C@@H]4C)n3)CC2)CC1`, the remaining binding was 99% (Tyrosine-protein kinase ABL1, non-phosphorylated (ABL1, Homo sapiens, UniProt P00519, H396P); binding, competition with immobilised ligand; 1 µM).
`C=C1CC[C@@H]2[C@](C)(CO)[C@H](O)CC[C@@]2(C)[C@@H]1C/C=C1/C(=O)OC[C@H]1O` gave an inhibition of 20% (USP51; enzyme activity, inhibitor; 5 µM).
`Cc1ccc(NS(=O)(=O)c2c(C)[nH]c(C)c2C(=O)N2CCCC2C)cc1Cl` (centres unmarked) gave an IC50 of 40 µM (D(3) dopamine receptor (DRD3, Homo sapiens, UniProt P35462); β-arrestin recruitment, antagonist).
`CC[C@H](C)[C@H](NC(=O)[C@H](CCC(N)=O)NC(=O)[C@@H](NC(=O)[C@H](CCSC)NC(=O)[C@H](CCCCN)NC(=O)[C@H](CO)NC(=O)[C@@H](NC(=O)[C@H](CCSC)NC(=O)[C@H](CC(C)C)NC(=O)[C@H](CC(N)=O)NC(=O)[C@@H](NC(=O)[C@@H](NC(=O)[C@H](CO)NC(=O)[C@H](CC(C)C)NC(=O)[C@H](C)NC(=O)[C@H](CCCNC(=N)N)NC(=O)[C@H](CCC(=O)O)NC(=O)[C@H](Cc1ccc(O)cc1)NC(=O)[C@H](Cc1ccccc1)NC(=O)[C@H](C)NC(=O)[C@H](CC(N)=O)NC(=O)[C@@H](N)CCCCN)[C@@H](C)CC)[C@@H](C)CC)[C@@H](C)O)C(C)C)C(=O)N[C@@H](CC(N)=O)C(=O)N[C@H](C(=O)O)C(C)C` gave an inhibition of 22% (Cyclin-dependent kinase 5, with p25 (CDK5, Homo sapiens, UniProt Q00535); enzyme activity, inhibitor, radiometric; 50 µM).
For `Cn1c(=O)c2[nH]cnc2n(C)c1=O`, the inhibition was 4.59% (SCN1A; ion current, inhibitor, patch clamp; 30 µM).
For `COc1cc2ccnc(Cc3cccc(-c4ccccc4)c3)c2cc1OC`, the inhibition was 45% (PDE10A; enzyme activity, inhibitor, FP; 0.1 µM).
`O=C(NO)c1cncc(OS(=O)(=O)Oc2ccc3ccccc3c2)c1` gave an inhibition of 35% (Histone deacetylase 9 (HDAC9, Homo sapiens, UniProt Q9UKV0); enzyme activity, inhibitor, fluorescence; 10 µM).
With `CC[C@H](C)[C@H](NC(=O)[C@H](CCC(N)=O)NC(=O)[C@H](CC(C)C)NC(=O)[C@H](CCSC)NC(=O)[C@H](CCCCN)NC(=O)[C@H](CO)NC(=O)[C@H](CO)NC(=O)[C@H](CCSC)NC(=O)[C@H](CC(C)C)NC(=O)[C@H](CC(N)=O)NC(=O)[C@@H](NC(=O)[C@@H](NC(=O)[C@H](CO)NC(=O)[C@H](CC(C)C)NC(=O)[C@H](CS)NC(=O)[C@H](CCCNC(=N)N)NC(=O)[C@H](CC(=O)O)NC(=O)[C@H](Cc1c[nH]c2ccccc12)NC(=O)[C@H](Cc1ccccc1)NC(=O)[C@H](C)NC(=O)[C@H](CCC(=O)O)NC(=O)[C@@H](N)CCCCN)C(C)C)[C@@H](C)CC)C(=O)N[C@@H](CC(N)=O)C(=O)N[C@@H](C)C(=O)O` the inhibition was 0% (Glycogen synthase kinase-3 beta (GSK3B, Homo sapiens, UniProt P49841); enzyme activity, inhibitor, radiometric; 50 µM).
`COc1ccc(-c2cc(=O)c3c(O)cc(O[C@@H]4O[C@H](CO)[C@@H](O)[C@H](O)[C@H]4O)cc3o2)cc1O` has an inhibition of 26.2% (PTGS2; enzyme activity, inhibitor; 0.12 µg/mL).
For `CN1CC(Oc2cnc(C#N)cc2-c2ccn3nc(NC(=O)C4CC4)cc3c2)C1`, the inhibition was 40% (Activated CDC42 kinase 1 (TNK2, Homo sapiens, UniProt Q07912); enzyme activity, inhibitor; 1 µM).
The inhibition of `CC(C)(C)c1ccc(OS(=O)(=O)Oc2cccc(C(=O)NO)c2)cc1` is reported as 50% (HDAC1; enzyme activity, inhibitor, fluorescence; 10 µM).
The inhibition of `O=C1C[C@@H](c2ccc(O)cc2)Oc2cc(O)cc(O)c21` is reported as 97% (USP51; enzyme activity, inhibitor; 5 µM).
With `Cc1c(OS(=O)(=O)Oc2cccc(C(C)(C)C)c2)cccc1C(=O)NO` the inhibition was 16% (Histone deacetylase 8 (HDAC8, Homo sapiens, UniProt Q9BY41); enzyme activity, inhibitor, fluorescence; 10 µM).
The inhibition of `O[C@@H]1[C@H](O)[C@@H]2C[C@@H]2[C@H]1n1cnc2c(NCCC3CC3)nc(I)nc21` is reported as 5% (SLC6A4; ligand displacement, radioligand; 10 µM).
`NC(=O)c1ccc(C(=O)NOCc2ccc(Sc3ccccc3)cc2)cc1` has an inhibition of 93.6% (SIRT6; enzyme activity, inhibitor, fluorescence; 100 µM).
With `Cc1c(OS(=O)(=O)Oc2ccc(C(F)(F)F)cc2)cccc1C(=O)NO` the inhibition was 31% (HDAC6; enzyme activity, inhibitor, fluorescence; 10 µM).
With `NCC(=O)O` the inhibition was 0% (USP51; enzyme activity, inhibitor; 5 µM).
`Cc1ccccc1Sc1ccc(CONC(=O)c2ccc(C(N)=O)cc2)cc1C(F)(F)F` has an inhibition of 100% (SIRT6; enzyme activity, inhibitor, fluorescence; 100 µM).

A few entries again:
`NC/C(=C\F)COc1cccc(Cn2c(=S)[nH]c(=O)c3[nH]cnc32)c1` gave an inhibition of 99.7% (MPO; enzyme activity, inhibitor, fluorescence; 15 µM).
With `NCC(=O)O` the inhibition was 0% (USP51; enzyme activity, inhibitor; 5 µM).
`CNc1ncc2c(/C=C/C(=O)N3CCC(OC)CC3)nn(Cc3cccc(C(F)(F)F)c3)c2n1` has a remaining activity of 100% (Tyrosine-protein kinase SYK (SYK, Homo sapiens, UniProt P43405); enzyme activity, inhibitor, radiometric; 1 µM).
For `Nc1nc2[nH]c(C3CC3)c(Cc3ccc(Cl)c(Cl)c3)c(=O)n2n1`, the inhibition was 93% (C-C chemokine receptor type 5 (CCR5, Homo sapiens, UniProt P51681); β-arrestin recruitment, antagonist; 1 µM).
`CC[C@H](C)[C@H](NC(=O)[C@H](CCC(N)=O)NC(=O)[C@@H](NC(=O)[C@H](CCSC)NC(=O)[C@H](CCCCN)NC(=O)[C@H](CO)NC(=O)[C@@H](NC(=O)[C@H](CCSC)NC(=O)[C@H](CC(C)C)NC(=O)[C@H](CC(N)=O)NC(=O)[C@@H](NC(=O)[C@@H](NC(=O)[C@H](CO)NC(=O)[C@H](CC(C)C)NC(=O)[C@H](C)NC(=O)[C@H](CCCNC(=N)N)NC(=O)[C@H](CCC(=O)O)NC(=O)[C@H](Cc1ccc(O)cc1)NC(=O)[C@H](Cc1ccccc1)NC(=O)[C@H](C)NC(=O)[C@H](CC(N)=O)NC(=O)[C@@H](N)CCCCN)[C@@H](C)CC)[C@@H](C)CC)[C@@H](C)O)C(C)C)C(=O)N[C@@H](CC(N)=O)C(=O)N[C@H](C(=O)O)C(C)C` gave an inhibition of 22% (Cyclin-dependent kinase 5, with p25 (CDK5, Homo sapiens, UniProt Q00535); enzyme activity, inhibitor, radiometric; 50 µM).
For `CCCCCCC#Cc1cncc(-c2nnc(SCc3cc([N+](=O)[O-])cc([N+](=O)[O-])c3)n2CCCN)c1`, the inhibition was 100% (mraY (Staphylococcus aureus, UniProt Q2FZ93); cell-free assay, inhibitor; 250 µM).
`C#Cc1cc(-c2cc(Nc3nc(N[C@@H](C)c4ccc(F)cn4)ncc3Cl)n[nH]2)ccc1C=O` gave an inhibition of 1.24% (RAC-alpha serine/threonine-protein kinase (AKT1, Homo sapiens, UniProt P31749); enzyme activity, inhibitor; 0.2 µM).
